Published values from different studies.
± gives the spread as reported.
CYP2B6: Cytochrome P450 2B6 (CYP2B6, Homo sapiens, UniProt P20813)
Chain of UniProt P20813 (whole entry, looked up): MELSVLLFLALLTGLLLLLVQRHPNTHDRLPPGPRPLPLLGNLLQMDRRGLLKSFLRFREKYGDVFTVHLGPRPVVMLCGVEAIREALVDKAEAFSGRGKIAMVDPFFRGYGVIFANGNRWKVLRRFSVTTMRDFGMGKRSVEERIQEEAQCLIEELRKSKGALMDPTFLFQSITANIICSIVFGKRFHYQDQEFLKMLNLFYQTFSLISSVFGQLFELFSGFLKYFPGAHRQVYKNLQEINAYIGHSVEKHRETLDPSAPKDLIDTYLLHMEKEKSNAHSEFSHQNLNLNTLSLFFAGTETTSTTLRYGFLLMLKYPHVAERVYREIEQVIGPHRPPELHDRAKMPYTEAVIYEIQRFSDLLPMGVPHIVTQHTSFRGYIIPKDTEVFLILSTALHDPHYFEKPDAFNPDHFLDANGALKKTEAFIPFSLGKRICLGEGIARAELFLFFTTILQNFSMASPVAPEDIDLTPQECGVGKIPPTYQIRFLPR
CYP3A4: Cytochrome P450 3A4 (CYP3A4, Homo sapiens, UniProt P08684)
Chain of UniProt P08684 (whole entry, looked up): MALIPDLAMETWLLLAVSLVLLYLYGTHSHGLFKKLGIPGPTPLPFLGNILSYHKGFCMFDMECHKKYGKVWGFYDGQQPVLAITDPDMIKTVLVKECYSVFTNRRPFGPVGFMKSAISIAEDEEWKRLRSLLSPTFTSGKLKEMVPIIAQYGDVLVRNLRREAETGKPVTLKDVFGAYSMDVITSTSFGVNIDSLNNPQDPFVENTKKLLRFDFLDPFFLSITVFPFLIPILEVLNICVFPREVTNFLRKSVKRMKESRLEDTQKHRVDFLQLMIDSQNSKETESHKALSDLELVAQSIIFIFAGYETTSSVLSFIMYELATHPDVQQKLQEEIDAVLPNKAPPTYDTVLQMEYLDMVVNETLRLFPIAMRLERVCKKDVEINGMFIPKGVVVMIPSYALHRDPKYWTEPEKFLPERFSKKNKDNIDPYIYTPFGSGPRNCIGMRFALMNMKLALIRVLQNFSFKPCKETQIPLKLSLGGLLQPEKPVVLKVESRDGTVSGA
SLC22A6: Solute carrier family 22 member 6 (SLC22A6, Homo sapiens, UniProt Q4U2R8)
Chain of UniProt Q4U2R8 (whole entry, looked up): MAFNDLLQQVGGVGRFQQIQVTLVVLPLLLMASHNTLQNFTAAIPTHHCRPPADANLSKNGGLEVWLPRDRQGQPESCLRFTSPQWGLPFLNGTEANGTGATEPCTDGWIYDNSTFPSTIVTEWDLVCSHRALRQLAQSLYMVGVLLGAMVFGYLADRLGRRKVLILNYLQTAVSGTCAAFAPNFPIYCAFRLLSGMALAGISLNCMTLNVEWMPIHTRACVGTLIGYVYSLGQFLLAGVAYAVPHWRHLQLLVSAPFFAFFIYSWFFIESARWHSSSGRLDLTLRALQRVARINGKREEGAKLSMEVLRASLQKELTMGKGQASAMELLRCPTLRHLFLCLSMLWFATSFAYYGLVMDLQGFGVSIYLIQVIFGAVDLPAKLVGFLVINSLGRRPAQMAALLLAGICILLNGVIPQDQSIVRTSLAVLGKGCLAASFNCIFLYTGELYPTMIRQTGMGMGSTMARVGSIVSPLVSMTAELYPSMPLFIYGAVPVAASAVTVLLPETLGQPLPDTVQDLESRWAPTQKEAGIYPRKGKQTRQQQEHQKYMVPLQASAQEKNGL
AHR: Aryl hydrocarbon receptor (AHR, Homo sapiens, UniProt P35869)
Chain of UniProt P35869 (whole entry, looked up): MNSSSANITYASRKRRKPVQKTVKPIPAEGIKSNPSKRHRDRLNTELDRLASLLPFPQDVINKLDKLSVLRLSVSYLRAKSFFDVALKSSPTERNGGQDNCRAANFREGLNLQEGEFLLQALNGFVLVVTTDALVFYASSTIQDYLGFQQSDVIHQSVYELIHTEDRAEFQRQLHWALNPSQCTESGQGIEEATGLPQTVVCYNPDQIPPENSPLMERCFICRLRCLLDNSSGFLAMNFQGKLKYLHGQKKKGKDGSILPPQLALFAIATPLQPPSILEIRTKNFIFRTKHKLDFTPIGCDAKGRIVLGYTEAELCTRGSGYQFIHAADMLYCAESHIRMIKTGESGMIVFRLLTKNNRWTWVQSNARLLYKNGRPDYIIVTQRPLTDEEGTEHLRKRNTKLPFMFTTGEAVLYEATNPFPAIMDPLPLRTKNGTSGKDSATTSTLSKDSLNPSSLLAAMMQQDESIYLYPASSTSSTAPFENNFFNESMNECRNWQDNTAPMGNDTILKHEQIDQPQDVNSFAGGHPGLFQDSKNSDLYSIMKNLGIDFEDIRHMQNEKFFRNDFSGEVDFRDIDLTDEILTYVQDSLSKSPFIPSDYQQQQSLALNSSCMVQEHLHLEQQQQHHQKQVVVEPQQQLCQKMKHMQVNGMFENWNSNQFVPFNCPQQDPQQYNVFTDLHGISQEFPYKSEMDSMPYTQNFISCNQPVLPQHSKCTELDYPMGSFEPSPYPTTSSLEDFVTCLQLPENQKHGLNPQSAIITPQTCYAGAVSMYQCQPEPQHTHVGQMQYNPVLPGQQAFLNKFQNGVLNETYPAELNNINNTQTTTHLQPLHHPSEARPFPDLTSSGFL
Chain of UniProt O70423 (whole entry, looked up): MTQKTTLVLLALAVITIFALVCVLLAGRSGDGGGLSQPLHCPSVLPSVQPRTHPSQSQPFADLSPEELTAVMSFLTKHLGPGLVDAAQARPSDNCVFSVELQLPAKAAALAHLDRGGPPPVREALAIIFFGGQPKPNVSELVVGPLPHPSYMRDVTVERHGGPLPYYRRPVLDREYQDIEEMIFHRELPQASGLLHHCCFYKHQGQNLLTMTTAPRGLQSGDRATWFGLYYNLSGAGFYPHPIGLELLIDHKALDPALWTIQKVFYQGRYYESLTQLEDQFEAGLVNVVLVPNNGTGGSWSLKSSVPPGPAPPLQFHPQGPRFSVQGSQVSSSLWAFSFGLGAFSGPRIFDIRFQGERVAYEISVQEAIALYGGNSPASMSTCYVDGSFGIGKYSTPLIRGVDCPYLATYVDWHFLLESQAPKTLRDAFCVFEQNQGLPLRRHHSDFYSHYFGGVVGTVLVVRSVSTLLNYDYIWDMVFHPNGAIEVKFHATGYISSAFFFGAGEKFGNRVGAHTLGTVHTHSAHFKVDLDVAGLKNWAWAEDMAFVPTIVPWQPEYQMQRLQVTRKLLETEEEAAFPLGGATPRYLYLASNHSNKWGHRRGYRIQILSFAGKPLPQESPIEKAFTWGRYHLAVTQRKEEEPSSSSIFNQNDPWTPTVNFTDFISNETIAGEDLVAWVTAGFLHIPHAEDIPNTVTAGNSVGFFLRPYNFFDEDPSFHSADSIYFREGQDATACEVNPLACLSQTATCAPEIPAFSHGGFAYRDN
Chain of UniProt Q9Y694 (whole entry, looked up): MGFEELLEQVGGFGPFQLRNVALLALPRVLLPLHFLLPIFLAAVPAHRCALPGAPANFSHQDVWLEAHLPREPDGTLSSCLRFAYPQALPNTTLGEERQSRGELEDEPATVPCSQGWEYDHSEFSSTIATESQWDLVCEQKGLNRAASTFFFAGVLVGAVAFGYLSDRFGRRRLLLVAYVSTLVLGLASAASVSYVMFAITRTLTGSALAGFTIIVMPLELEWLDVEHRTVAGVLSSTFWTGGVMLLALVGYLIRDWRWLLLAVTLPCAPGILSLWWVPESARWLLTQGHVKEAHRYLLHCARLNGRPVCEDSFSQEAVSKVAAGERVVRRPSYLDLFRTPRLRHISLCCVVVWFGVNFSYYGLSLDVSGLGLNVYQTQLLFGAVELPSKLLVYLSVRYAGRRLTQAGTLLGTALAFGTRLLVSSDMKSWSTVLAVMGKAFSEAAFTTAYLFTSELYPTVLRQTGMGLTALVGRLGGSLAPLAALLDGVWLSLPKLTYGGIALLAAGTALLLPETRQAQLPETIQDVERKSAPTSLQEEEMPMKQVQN
Chain of UniProt P08183 (whole entry, looked up): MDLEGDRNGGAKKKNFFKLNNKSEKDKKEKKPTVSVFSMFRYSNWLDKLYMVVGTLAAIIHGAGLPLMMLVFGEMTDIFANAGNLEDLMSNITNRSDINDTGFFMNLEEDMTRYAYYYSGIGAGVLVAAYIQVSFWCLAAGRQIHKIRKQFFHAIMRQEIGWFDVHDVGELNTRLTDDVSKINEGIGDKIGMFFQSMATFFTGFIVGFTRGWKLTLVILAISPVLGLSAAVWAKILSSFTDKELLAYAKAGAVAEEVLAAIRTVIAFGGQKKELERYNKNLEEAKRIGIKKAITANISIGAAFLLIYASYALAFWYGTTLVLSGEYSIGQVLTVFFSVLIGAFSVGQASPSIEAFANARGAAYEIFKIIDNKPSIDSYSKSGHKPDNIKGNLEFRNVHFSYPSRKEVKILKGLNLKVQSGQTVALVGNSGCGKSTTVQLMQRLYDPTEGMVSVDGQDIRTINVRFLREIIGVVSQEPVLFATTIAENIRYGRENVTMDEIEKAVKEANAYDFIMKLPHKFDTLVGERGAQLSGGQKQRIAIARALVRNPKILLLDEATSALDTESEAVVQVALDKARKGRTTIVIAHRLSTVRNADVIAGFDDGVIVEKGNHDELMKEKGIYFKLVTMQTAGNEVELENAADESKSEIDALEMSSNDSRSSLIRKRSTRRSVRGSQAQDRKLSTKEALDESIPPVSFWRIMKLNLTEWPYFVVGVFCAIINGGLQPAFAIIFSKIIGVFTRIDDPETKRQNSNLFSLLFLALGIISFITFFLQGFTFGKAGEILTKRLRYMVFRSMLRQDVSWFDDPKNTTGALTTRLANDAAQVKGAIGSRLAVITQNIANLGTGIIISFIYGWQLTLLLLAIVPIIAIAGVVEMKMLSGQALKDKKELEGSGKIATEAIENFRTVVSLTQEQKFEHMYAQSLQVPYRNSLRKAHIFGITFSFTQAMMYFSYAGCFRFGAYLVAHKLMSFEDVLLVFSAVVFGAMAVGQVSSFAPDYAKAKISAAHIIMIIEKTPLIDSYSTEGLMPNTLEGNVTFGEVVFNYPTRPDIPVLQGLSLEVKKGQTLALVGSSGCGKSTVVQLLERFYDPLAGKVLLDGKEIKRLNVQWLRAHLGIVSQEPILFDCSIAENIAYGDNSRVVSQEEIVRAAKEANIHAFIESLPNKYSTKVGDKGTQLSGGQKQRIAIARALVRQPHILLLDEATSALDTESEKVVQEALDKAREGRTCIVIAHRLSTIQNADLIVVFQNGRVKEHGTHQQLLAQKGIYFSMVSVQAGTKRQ

SMILES	target	test	test system	conditions	scale	endpoint	result
C=CC(=O)N(C)CCOc1c(N)ncnc1-c1cc(F)cc(NC(=O)c2ccc(C3CC3)cc2F)c1C	CYP2B6	recombinant enzyme	potassium phosphate buffer	pH 7.4	–	fraction unbound in microsomal incubation	0.93
NC(=O)C1(N2CCCCC2)CCN(CCCC(=O)c2ccc(F)cc2)CC1	H+/organic cation antiporter	cell uptake	hCMEC/D3	–	–	intrinsic clearance	26.6 µL/min/mg protein
C[C@H](CCC(=O)NCC(=O)O)[C@H]1CC[C@H]2[C@@H]3[C@H](O)C[C@@H]4C[C@H](OS(=O)(=O)O)CC[C@]4(C)[C@H]3CC[C@]12C	SLC22A7 (Homo sapiens, UniProt Q9Y694)	–	HEK293 control cells	–	–	uptake velocity	19.4 ± 5.3 pmol/min/mg protein
CC[C@H]1[C@@H](O)[C@@H]2[C@H](CC[C@]3(C)[C@@H]([C@H](C)CCNC(=O)NS(=O)(=O)c4ccc(C(C)(C)C)cc4)CC[C@@H]23)[C@@]2(C)CC[C@@H](O)C[C@@H]12	CYP3A4	substrate	human, plasma	10 mg, alone, study day 1	–	AUC(0-t) mean	390 ng·h/mL
NC/C(=C\F)COc1cccc(Cn2c(=S)[nH]c(=O)c3[nH]cnc32)c1	SLC22A6	transport, inhibitor	CHO cells expressing SLC22A6	30 µM, together with: CF substrate	–	inhibition	< 50%
C[S+](C)[O-]	human HLA-A*24:02 peptide complex	nanoDSF	–	10% (v/v), pH 7.6, ramp 1.0 °C/min	–	melting temperature	56.1 ± 0.1 °C
O=C1CC2(CCCC2)CC(=O)N1CCCCN1CCN(c2ncccn2)CC1	H+/organic cation antiporter	cell uptake	hCMEC/D3	–	–	intrinsic clearance	11.3 µL/min/mg protein
CCCCC1=NC2(CCCC2)C(=O)N1Cc1ccc(-c2ccccc2S(=O)(=O)Nc2noc(C)c2C)c(COCC)c1	CYP3A4	mechanism-based inhibitor	–	–	–	kinact	3.17 h⁻¹
CC1(C)CCC2(CC1)N[C@@H](C(=O)N[C@@H]1CC[C@@H](C(N)=O)OC1)[C@H](c1ccnc(Cl)c1F)[C@]21C(=O)Nc2cc(Cl)ccc21	ABCB1 (Homo sapiens, UniProt P08183)	–	Caco-2 monolayers	1 µM, 120 min, no inhibitor	–	Papp B to A	18.2 ×10⁻⁶ cm/s
CCCN1CCCC[C@H]1C(=O)Nc1c(C)cccc1C	H+/organic cation antiporter	cell uptake	hCMEC/D3	–	–	intrinsic clearance	4.4 µL/min/mg protein
O=C([O-])CN(CCN(CC(=O)[O-])CC(=O)[O-])CC(=O)[O-].[Fe+3]	Fe(III)	EDTA competition	–	pH 7.4	–	log conditional stability constant	22.2
C=CC(=O)N1C[C@H](Nc2ncnc3[nH]ccc23)CC[C@@H]1C	CYP3A	substrate	human	oral, single dose, together with: itraconazole multiple doses	–	apparent oral clearance CL/F	97.3 L/h
COC(=O)c1ccc(C(=O)c2c[nH]c3ccccc23)cc1	AHR	reporter gene, agonist, XRE luciferase	HepG2	10 µM	baseline: ITE	activity at 10 µM	45%
COCCc1ccc(OCC(O)CNC(C)C)cc1 (centres unmarked)	H+/organic cation antiporter	cell uptake	hCMEC/D3	–	–	intrinsic clearance	10.3 µL/min/mg protein
Cc1cc(Nc2ncnc3ccc(NC4=NC(C)(C)CO4)cc23)ccc1Oc1ccn2ncnc2c1	CYP3A4	–	human, plasma	oral, 300 mg, day 1, single dose alone	–	AUC(0-inf), geometric mean	3350 ng·h/mL
NCc1cc2c(cc1F)C(=O)N(C1CCC(=O)NC1=O)C2 (centres unmarked)	Amine oxidase [copper-containing] 3 (Mus musculus, UniProt O70423)	substrate, LC-MS/MS	recombinant mouse enzyme	10 µM, 8 h, pH 7.4, together with: inhibitor 0.25 µM	–	concentration	7.5 µM
CC(C)OC(=O)c1cccc(C(=O)c2c[nH]c3ccccc23)n1	AHR	reporter gene, agonist, XRE luciferase	HepG2	10 µM	baseline: ITE	activity at 10 µM	42%
O=c1[nH]c(=O)c(Cc2cccc(C(F)(F)F)c2)c([C@H]2CC[C@H](c3ccccc3)CC2)[nH]1	SLC22A6	uptake, inhibitor	HEK cells expressing SLC22A6	together with: tenofovir	–	IC50	> 1 µM
N#C[C@H](C[C@@H]1CCCNC1=O)NC(=O)[C@H](CC1CC1)NC(=O)c1cc2cccc(Cl)c2[nH]1	CYP2B6	ISEF abundance scaling	–	2 µM, pH 7.4	–	fraction metabolised	< 1%
CCCOC(C(=O)OC1CCN(C)CC1)(c1ccccc1)c1ccccc1	H+/organic cation antiporter	cell uptake	hCMEC/D3	–	–	intrinsic clearance	217 µL/min/mg protein
C=C(F)C(=O)N1CCN(c2nc(OC[C@@H]3CCCN3C)nc3c2CCN(c2cccc4cccc(Cl)c24)C3)C[C@@H]1CC#N	CYP3A4	–	healthy volunteers, plasma	200 mg, median, together with: itraconazole once daily	–	Tmax	8 h
C=CC(=O)Nc1cc(Nc2nccc(-c3cn(C)c4ccccc34)n2)c(OCC(F)(F)F)nc1N(C)CCNC	CYP3A4	substrate depletion	recombinant human CYP	1 µM	–	intrinsic clearance	1 µL/min/pmol
CC(C)=CCc1c(O)cc(O)c2c1O[C@H](c1ccc(O)cc1)CC2=O	human CYP2D6	–	–	10 µM, pH 7.4	–	inhibition	< 10%
CC(C)c1nc(N(C)S(C)(=O)=O)nc(-c2ccc(F)cc2)c1/C=C/[C@@H](O)C[C@@H](O)CC(=O)O	OATP	–	cynomolgus monkey hepatocytes	37 °C, 10% monkey serum, together with: 200 µM rifamycin SV	–	uptake clearance	1.5 µL/min/10⁶ cells
CC(C)C(=O)Oc1ccc(CO)cc1[C@H](CCN(C(C)C)C(C)C)c1ccccc1	H+/organic cation antiporter	cell uptake	hCMEC/D3	–	–	intrinsic clearance	83.3 µL/min/mg protein
COC(=O)c1ccc(C(=O)c2c[nH]c3ccccc23)nc1	AHR	reporter gene, agonist	HepG2	XRE-driven luciferase	baseline: ITE 10 µM	Emax	4%

Repeated from above:
SMILES	target	test	test system	conditions	scale	endpoint	result
CC(C)OC(=O)c1cccc(C(=O)c2c[nH]c3ccccc23)n1	AHR	reporter gene, agonist, XRE luciferase	HepG2	10 µM	baseline: ITE	activity at 10 µM	42%
COCCc1ccc(OCC(O)CNC(C)C)cc1 (centres unmarked)	H+/organic cation antiporter	cell uptake	hCMEC/D3	–	–	intrinsic clearance	10.3 µL/min/mg protein
